Measurements from different studies.
Lines come from different studies, so protocols differ.
JAK2: Tyrosine-protein kinase JAK2 (JAK2, Homo sapiens, UniProt O60674)
UniProt O60674, sequence (whole entry, looked up): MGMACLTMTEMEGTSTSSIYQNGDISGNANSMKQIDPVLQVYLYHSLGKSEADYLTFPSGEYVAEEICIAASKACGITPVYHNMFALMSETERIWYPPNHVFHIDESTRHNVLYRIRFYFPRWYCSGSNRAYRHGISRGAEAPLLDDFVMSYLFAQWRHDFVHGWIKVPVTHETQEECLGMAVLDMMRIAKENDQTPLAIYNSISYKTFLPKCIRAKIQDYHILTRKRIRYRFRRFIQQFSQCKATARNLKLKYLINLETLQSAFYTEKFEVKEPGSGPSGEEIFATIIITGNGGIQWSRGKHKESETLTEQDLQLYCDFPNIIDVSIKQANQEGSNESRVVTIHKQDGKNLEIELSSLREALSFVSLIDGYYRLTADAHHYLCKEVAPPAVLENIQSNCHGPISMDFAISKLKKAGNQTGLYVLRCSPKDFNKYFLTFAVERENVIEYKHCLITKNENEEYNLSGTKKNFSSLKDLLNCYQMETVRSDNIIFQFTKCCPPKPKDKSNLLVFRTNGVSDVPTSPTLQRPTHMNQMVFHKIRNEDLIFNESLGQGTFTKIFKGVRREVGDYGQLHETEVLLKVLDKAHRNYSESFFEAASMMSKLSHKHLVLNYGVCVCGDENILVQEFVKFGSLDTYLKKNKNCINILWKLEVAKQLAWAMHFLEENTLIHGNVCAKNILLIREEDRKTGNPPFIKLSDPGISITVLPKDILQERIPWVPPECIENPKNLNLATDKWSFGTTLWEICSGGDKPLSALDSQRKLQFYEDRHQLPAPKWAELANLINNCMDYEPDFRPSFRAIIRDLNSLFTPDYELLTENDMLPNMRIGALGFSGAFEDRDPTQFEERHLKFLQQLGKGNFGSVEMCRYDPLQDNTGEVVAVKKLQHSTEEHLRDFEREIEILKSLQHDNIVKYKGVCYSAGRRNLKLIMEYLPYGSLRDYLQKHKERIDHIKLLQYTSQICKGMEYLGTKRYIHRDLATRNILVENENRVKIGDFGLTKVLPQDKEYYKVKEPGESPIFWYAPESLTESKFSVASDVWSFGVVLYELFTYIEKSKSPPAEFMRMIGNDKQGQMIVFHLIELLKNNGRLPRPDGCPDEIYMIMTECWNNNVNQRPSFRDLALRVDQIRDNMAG

| Structure (SMILES) | target | test | measurement | value |
| --- | --- | --- | --- | --- |
| Cc1cnc(Nc2ccc3c(c2)CCN(C(=O)/C=C/C(=O)c2ccc(Cl)cc2)C3)nc1-c1cnn(C(C)C)c1 | JAK2 | enzyme activity, inhibitor, ADP detection | IC50 | 0.41 nM |
| CCN(CC)CC(=O)Nc1cccc(-n2cc(-c3ccc4ccc(-c5cn(-c6cccc(NC(=O)CN(CC)CC)c6)nn5)cc4c3)nn2)c1 | JAK2 | enzyme activity, inhibitor | IC50 | > 10000 nM |
| Cc1c[nH]c2nccc(-c3ccc(C(=O)N[C@@H]4c5c(F)cc(C(F)F)cc5C[C@@H]4O)cn3)c12 | Tyrosine-protein kinase JAK2, JH1 (JAK2, Homo sapiens, UniProt O60674) | binding, competition with immobilised ligand | Kd | 27.5 nM |
| Cc1cnc(Nc2ccc3c(c2)CCN(C(=O)/C=C/C(=O)C(C)C)C3)nc1-c1cnn(C(C)C)c1 | JAK2 | enzyme activity, inhibitor, ADP detection | IC50 | 11.8 nM |
| Cc1nn(-c2cccc(N)c2)c(=O)c2cnc(Nc3ccc(N4CCNCC4)cc3)nc12 | JAK2 | enzyme activity, inhibitor | IC50 | > 10000 nM |
| Cc1cnc2nc1Nc1cccc(c1)COCCCCOCc1cc(ccc1OCCN1CCCC1)N2 | JAK2 | enzyme activity, inhibitor, FRET | IC50 | 240 nM |
| CCC(CC)C(=O)/C=C/C(=O)N1CCc2cc(Nc3ncc(C)c(-c4cnn(C(C)C)c4)n3)ccc2C1 | JAK2 | enzyme activity, inhibitor, ADP detection | IC50 | 9.65 nM |
| Cc1cnc2nc1Nc1cccc(c1)COC/C=C/COCc1cc(ccc1OCCN1CCCCC1)N2 | JAK2 | enzyme activity, inhibitor, FRET | IC50 | 1.65 nM |
| Cc1cnc(Nc2ccc(C3CCN(C)CC3)c(F)c2)nc1Nc1ccc(Cl)c(NS(=O)(=O)C(C)(C)C)c1 | JAK2 | enzyme activity, inhibitor | IC50 | 3.9 nM |

Some of these lines once more:
| Structure (SMILES) | target | test | measurement | value |
| --- | --- | --- | --- | --- |
| Cc1cnc(Nc2ccc3c(c2)CCN(C(=O)/C=C/C(=O)C(C)C)C3)nc1-c1cnn(C(C)C)c1 | JAK2 | enzyme activity, inhibitor, ADP detection | IC50 | 11.8 nM |
